Experimental data gathered from unrelated publications.
Each numbered part is a random draw from the data of one study; scales do not carry over between parts.

Block 1
Target: Hepatocyte nuclear factor 3-alpha (Foxa1, Mus musculus, UniProt P35582, residues 1-468, full length assumed)
Technique: EMSA with sequencing
Form: double-stranded DNA, one strand shown
Medium: in vitro
Concentration: 10 and 20 nM
Setting: whole designed probe, mean of two concentrations, ends assumed
Relative to: negative control set to 0
Reading: higher = stronger binding
Residues (chain): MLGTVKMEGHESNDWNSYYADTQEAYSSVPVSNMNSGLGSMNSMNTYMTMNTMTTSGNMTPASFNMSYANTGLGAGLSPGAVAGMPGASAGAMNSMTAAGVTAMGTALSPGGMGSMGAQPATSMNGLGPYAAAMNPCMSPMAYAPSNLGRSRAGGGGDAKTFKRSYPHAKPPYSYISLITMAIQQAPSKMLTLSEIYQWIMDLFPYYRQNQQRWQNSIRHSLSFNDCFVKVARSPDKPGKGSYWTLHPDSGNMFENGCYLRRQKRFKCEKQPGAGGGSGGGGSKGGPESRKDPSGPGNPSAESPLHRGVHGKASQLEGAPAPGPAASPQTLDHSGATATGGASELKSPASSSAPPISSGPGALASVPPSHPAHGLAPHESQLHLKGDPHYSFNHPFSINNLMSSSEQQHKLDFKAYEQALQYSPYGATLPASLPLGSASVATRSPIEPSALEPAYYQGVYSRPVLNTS
Oligonucleotide	normalised bound fraction [ratio]
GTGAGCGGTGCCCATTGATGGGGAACTTTCAGTGTTCACATTTCCCGTTAAGAAAAAAAAACTAATTTTTTACATGCATCATCATTAATTAGTGTAGTTTAATTAGTGTTTAGCTAAAAAGTAATCTGGGACCTAAATTAAGTTTGTTAGACAGTGCTAGAATTTACTGGGCTCCAGTAAATTTCACCTGGGTTTCAGGCAGGAAGAAAGTAAGGATGTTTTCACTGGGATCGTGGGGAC	-0.041
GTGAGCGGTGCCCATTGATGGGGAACGTGTGTGCGCGCGCGTGTGTGTGTGTTTTCTTAAGCCGGGCTATTCAAACCCTGCTGCAATTCTCCGGTAAACAATGTTACATGGGGCATAATGCAAATAAACGGATTGCAAACGGCGCGGTTCCAATGATTCATAGCCGGCCCGGTGGAGCAGCCAGTGCCGGATTTCTCCCTTTTTTTGCAGATCTGCAGATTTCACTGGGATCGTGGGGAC	0.428
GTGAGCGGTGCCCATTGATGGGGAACAGAACATATAAATCAGCACAAACAATGTAATATCAGATGGCTTTCAAATAAGAGATTAGAAAATGTTGTCCAAAGATATAAATAATGTGAAAAGTAATTTAAAATGCATTTATTTCATTAAGATAGATGACATAACTTTTTTAATGTCAAGGAATTTAATAATCACCTCCCTAAAACTTAATGGGTCCTCCCCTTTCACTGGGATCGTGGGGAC	0.0264
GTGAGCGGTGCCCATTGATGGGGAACATCTTCCCCCTCTTCCTTGCCCCACCAGCTCACCTACGGGGGTTATTTGCACAAAGGAAAATAAATAAAGCCGGCATTCGTTAACGCAGTTCTGGCGCAAACTGCTGTTTGCTCTGGATGAATCATGGTCCTTTGGCGAGGCGTGGCTCCGGGAGAGCAAAGCACCGTGTCAGGGCCATGATCCGGGGTGGCCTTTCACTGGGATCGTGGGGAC	0.382
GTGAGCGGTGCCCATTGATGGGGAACGGGTCCCGGGCGGCGGCAGGAATGCAGGAATGCGCACAGGCTGTGGGCGGCCAGGAGGGGGCGGAAGTGAGTCCCGGCGCCTGCCCCAGTCTTTGTGTACCCTGTCCAACACCTCCCCCCGCCAGCGCGGAAGGCCGGGCTACCTGCGCGCCTGGCAGCGCCTGGCAGCCGGCTGGGTGGGGCGCAGGGGAGCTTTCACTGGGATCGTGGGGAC	0.000433
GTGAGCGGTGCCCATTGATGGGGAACCCTCTGATTTCTATAGCATGTTGTTAGTCCCTATATTTAACACATTGTTTCAGCCCTGTAGTATATTGAGCTACTGTTTTCCCTGCCCCATATGTCAACATATTTAATAACTAGCATTTGTGGGGTTTATATTTTTCCAAATTATTTCAAATGTTTATTGATTTTACTCTTCACAGCATAAATATAAAGTGAATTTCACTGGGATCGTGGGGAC	0.37

Block 2
Target: Histone acetyltransferase KAT6A, both winged helices, GST fusion (KAT6A, Homo sapiens, UniProt Q92794, residues 1-181)
Technique: protein binding microarray
Form: double-stranded DNA, one strand shown
Medium: in vitro
Concentration: not given
Setting: 8-mer, flanks averaged, mean of 2 arrays, mostly near background
Relative to: not given
Reading: higher = stronger binding
Target sequence (chain): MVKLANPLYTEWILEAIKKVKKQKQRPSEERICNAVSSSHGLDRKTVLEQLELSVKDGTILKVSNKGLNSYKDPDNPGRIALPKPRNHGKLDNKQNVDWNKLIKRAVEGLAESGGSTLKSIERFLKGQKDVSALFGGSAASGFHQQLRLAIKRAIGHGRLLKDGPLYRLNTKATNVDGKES
Oligonucleotide	E-score
CGAGGCCG	0.188
TGCTCACA	-0.146
AGCTTCAC	-0.124
GCTTTCCA	-0.0296
CCGTATCA	0.225
CCGCTCCA	0.15
GCGAGCAC	0.0649
AGGAGCCA	-0.222
AGGCAACA	-0.12
CCCGTCTA	0.188
CACAAGTG	-0.075
ACGCTACT	0.14
ACTCCACT	-0.185
ACTCCCTG	-0.314
GGGGTCAC	-0.0408
CGCACAGC	0.267
GGCAGATA	0.00553
GCATGTCC	0.0441
AATGGACC	-0.0631
CCCCTGAG	-0.246

Block 3
Target: RING finger protein unkempt homolog, zinc fingers 1-6, GST-SBP tag (UNK, Homo sapiens, UniProt Q9C0B0, residues 30-357)
Chain of UniProt Q9C0B0 (30-357, looked up): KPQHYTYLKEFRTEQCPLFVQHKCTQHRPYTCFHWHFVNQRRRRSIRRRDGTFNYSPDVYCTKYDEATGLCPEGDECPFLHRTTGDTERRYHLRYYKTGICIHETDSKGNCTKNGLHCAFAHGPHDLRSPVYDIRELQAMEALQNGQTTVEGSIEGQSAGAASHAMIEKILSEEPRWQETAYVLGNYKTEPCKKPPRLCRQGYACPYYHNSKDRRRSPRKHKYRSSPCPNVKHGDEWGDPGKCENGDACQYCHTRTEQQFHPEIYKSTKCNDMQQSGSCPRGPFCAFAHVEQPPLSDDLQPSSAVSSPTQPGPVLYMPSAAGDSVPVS
Technique: RNA Bind-n-Seq
Form: RNA
Medium: in vitro
Concentration: not given
Setting: RNA with constant flanks, human and mouse sites, ends assumed
Relative to: input RNA pool
Reading: higher = stronger binding
Oligonucleotide	bound/input enrichment [ratio]
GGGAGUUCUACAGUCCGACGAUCAUCAUACACUUCCUUCUUUUUUAAAAAAGUUGGGUUUUCUCCAUUCAGGAUUCUGUUCCUUAGGUUUUUUUCCUUCUGAAGUGUUUCACGAGAGCCCGGGAGCUGCUGCCCUGCGGCCCCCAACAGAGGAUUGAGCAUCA	0.564
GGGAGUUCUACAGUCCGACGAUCAUUCAGUUGGAAGAUGGUUCUGCGGCCUAUGUUCAACAUGUACCCAUACCUAAAAGUAAUAGUUAUGACCAGAGUGCAUUACAGGCGGUUCAGCUGGAAGAUGGUACCACAGCUUAUAUCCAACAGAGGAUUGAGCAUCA	0.135
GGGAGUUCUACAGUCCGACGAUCGUUUAUGUUCCAGAUGAAAAUAAUACUAUUUUGGGGAGAAAUACAAAUAAACAAGUUUUUGAAGGCUUGACAACUGGACUUCUCAAAGUCAGUGCUGUGGUUUUGGGCUGCCUGAUUGCCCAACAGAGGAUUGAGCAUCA	0.348
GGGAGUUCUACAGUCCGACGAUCAAGAAUCAGGAAUUUCAUAUAUAGUAUACAAUUUUGCUACUUCCCCUCUGUCUCAGACUGGCUUUCUCUUAAAGAAGUAAACAGAUUUUGCGCAAAGGAGCAAGGAAGGGUUUCUUGCCUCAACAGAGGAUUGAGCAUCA	2.37
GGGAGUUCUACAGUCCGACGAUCUAUUUAAGUAUAUGGCCUUCCAGACUUUUCUGUGCAUUUAUAGAUAUUUUUAAUGGGAUCAAAGUGUACAUACUGUUUUGUAACUUUUUUUCACUCAACAAUACCAUGACUGUCUUGCUGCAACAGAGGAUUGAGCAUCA	0.788
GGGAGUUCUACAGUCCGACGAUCAUUAGAAAUGGUUUGUGCUGCCUUGGUAGGGCUUUAAAGCACAGUAUUUCUCACUGACACAUUGGGCUUUCUGCUGGAAAGGAGCGGUGGGUAAGGCUCCCCUGGGUAUCACAUUGUGUACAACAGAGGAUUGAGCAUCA	0.231
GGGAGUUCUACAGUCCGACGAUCGAUUCACUCCCUCUGGUUGAUACCCACUCAAAAAGGACACUUCUGAUUAAGACGGUUGAAACUAGAGAUGGACAGGUUAUCAACGAAACUUCUCAGCAUCACGAUGACCUUGAAUAAAAACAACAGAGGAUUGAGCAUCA	0.147
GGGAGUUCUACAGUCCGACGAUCUGGUAUCUCUUCUUAGUGUUCUAUUUAUCUUAUUUGCUAAUGGGAGCACUUCUUCCUUUGUUAGGCUGUGCUUUACUGAUAAAACCAAGUAUUGAAUAAAGAGAGUUAAUUAUCUUUUUACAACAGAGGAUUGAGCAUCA	1.08

Block 4
Target: RNA binding protein fox-1 homolog 2, RRM domain, GST-SBP tag (RBFOX2, Homo sapiens, UniProt O43251-10, residues 100-194)
Technique: RNA Bind-n-Seq
Form: RNA
Medium: in vitro
Concentration: 365 nM
Setting: natural RNA segment, single round, ends assumed
Relative to: no-protein control
Reading: higher = stronger binding
Residues (chain): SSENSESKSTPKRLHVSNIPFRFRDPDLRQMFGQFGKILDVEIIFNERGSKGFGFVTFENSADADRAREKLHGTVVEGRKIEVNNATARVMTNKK
Oligonucleotide	RBNS enrichment (R)
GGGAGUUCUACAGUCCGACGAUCAAAAGGCCUCCUCCAGCGGGGCAGGCUGCUCAGUGUGGGUGGCAAGUUGUAGCCCAGCUGGAGGACAGGCCUUUGCUCCCUGGGCAGGUGCCCACUGGUGUCCCAUGGAAUGGAAUUCUCGGGUGCCAA	0.234
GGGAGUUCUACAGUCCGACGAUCCCAAGGUCACGAGAAGCAGCCAGAGUGCCCCGCCUCCGCCGGCUCUGGUCUGCCAUUCGCCAGUGCAGGGAUCUGGCACGGACCAGAUGUGGCGAAUGGCAGCACAGCGCUGGAAUUCUCGGGUGCCAA	1.02
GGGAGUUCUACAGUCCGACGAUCCCAAAUAACUGCUGGCUAGUUGGGGCUUUGUUUUGGUCUAGUGAAUAAAUACUGGUGUAUCCCCUGACUUGUACCCAGAGUACAAGGUGACAGUGACACAUGUAACUUAGUGGAAUUCUCGGGUGCCAA	0.32
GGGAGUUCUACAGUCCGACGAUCAGAGGCUCUGUUUUCCACUGAAGCUUUGUUGGAGAAAGAGAAUAUGAAAAUUACACAUUUUAUAAUUUUUAGAUGAGAAAAUACCACUAGCAGAAUAGCUUUGUGCUAUUUGGAAUUCUCGGGUGCCAA	0.779
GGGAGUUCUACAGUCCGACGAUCGGGCAAAAAGCUUUAUAUUUAUUUGAUUAUCCAAAAUACAGAUCAAAGUUUAGAUCUACAUUCUUCAUUGUAUUUGCUGUUUCUUAAUUGGGCACACACAACUCCUGGUCUGGAAUUCUCGGGUGCCAA	0.504
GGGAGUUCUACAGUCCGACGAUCGAUCCCUACCCAUGGGAAUGCAGAGCCUUCUCCGCAUGUGUGCGUGCAGCUGUGUCUUAUGUAUUUAUAUGUAUGUCGCUCUUCAAAAGCAACCUAGUUUAUGGGGCAGCUGGAAUUCUCGGGUGCCAA	0.817
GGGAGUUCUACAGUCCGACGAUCUGUUCUUAAAGCAUUAUUUACAGUAGGAACUGGGGAGUAAAUCUGUUCCCUACAGUUUGCUGCUGAGCUGGAAGCUGUGGGGGAAGGAGUUGACAGGUGGGCCCAGUGAAUGGAAUUCUCGGGUGCCAA	0.51
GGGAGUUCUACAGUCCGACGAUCAGCCCUGUGUGUGGAAUUCCAGAUUUUUCUUUUCCUUUAAUAUCACUUUAUGGGUUCUAGAUGAUGUUUUGACAUGUGCUCAACCUUGAUUUGUUGAUUUAGUUAAAAUAUGGAAUUCUCGGGUGCCAA	0.706
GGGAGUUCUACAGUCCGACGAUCUGCCCACACAACAGUCUGAGCAAGAGACCUGCAGCCCCUGUUUCGUGGCAGACAGCAGGUGCCUGGCGGUGACCCACGGGGCUCCUGGCUUGCAGCUGGUGAUGGUCAAGUGGAAUUCUCGGGUGCCAA	0.426

Excerpt of the above (block 1):
Oligonucleotide	normalised bound fraction [ratio]
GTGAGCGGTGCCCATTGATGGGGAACGTGTGTGCGCGCGCGTGTGTGTGTGTTTTCTTAAGCCGGGCTATTCAAACCCTGCTGCAATTCTCCGGTAAACAATGTTACATGGGGCATAATGCAAATAAACGGATTGCAAACGGCGCGGTTCCAATGATTCATAGCCGGCCCGGTGGAGCAGCCAGTGCCGGATTTCTCCCTTTTTTTGCAGATCTGCAGATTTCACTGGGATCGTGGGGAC	0.428
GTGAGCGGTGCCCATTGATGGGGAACCCTCTGATTTCTATAGCATGTTGTTAGTCCCTATATTTAACACATTGTTTCAGCCCTGTAGTATATTGAGCTACTGTTTTCCCTGCCCCATATGTCAACATATTTAATAACTAGCATTTGTGGGGTTTATATTTTTCCAAATTATTTCAAATGTTTATTGATTTTACTCTTCACAGCATAAATATAAAGTGAATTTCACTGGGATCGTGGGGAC	0.37
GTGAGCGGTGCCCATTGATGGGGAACATCTTCCCCCTCTTCCTTGCCCCACCAGCTCACCTACGGGGGTTATTTGCACAAAGGAAAATAAATAAAGCCGGCATTCGTTAACGCAGTTCTGGCGCAAACTGCTGTTTGCTCTGGATGAATCATGGTCCTTTGGCGAGGCGTGGCTCCGGGAGAGCAAAGCACCGTGTCAGGGCCATGATCCGGGGTGGCCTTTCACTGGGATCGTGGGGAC	0.382
